Published values of several laboratories.
Parts stem from different laboratories: compare values within a part only.

Block 1
Target: Ras GTPase-activating protein-binding protein 1, full length (G3BP1, Homo sapiens, UniProt Q13283)
Sequence of UniProt Q13283 (whole entry, looked up): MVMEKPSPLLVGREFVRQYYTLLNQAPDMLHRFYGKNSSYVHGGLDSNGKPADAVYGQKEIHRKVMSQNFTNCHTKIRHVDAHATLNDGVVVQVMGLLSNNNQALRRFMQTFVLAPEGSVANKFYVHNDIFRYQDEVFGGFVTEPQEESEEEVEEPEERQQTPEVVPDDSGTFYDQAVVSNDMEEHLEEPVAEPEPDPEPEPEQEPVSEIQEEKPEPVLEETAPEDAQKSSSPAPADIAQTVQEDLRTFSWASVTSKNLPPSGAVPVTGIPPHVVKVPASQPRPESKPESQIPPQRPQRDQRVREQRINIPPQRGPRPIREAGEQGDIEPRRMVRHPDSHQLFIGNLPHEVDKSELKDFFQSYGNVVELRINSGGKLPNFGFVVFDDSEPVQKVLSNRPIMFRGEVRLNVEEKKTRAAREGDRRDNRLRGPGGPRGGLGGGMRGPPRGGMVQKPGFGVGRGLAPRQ
Technique: RNA Bind-n-Seq
Form: RNA
Matrix: in vitro
Tested at: 200 nM
Notes: whole 134-nt RNA, ends assumed
Together with: 150 mM KCl
Baseline: input library
Direction: higher = stronger binding
All sequences stand within: GGGAGUUCUACAGUCCGACGAUC … UGGAAUUCUCGGGUGUCAAGG
Oligonucleotide	log2 enrichment
UCCUGUGCUACACAUCGUAUGUACCGAAUCGGGAAAAAGGGGAAAAAGGGGAAAAAGGGGAAAGUAUUAUGUUACGCCGUUCGGAUCUGC	0.298
UAACUUAAGAGGAGGAUCUGAUGGAUAUGGCAGUGGACGUGGAUUUGGGGAUGGCUAUAAUGGGUAUGGAGGAGGACCUGGAGGUGGCAA	0.26
CAAGUCCUGUGCUACACAUCGUAUGUACCGAAUCGGGGUUUGGGGAGGGGUGGGGAAAGUAUUAUGUUACGCCGUUCGGAUCUGCACUUC	1.37
AAGUCCUGUGCUACACAUCGUAUGUACCGAAUCGGGUUUGGGUUUGGGAAAAAGGGAAAGUAUUAUGUUACGCCGUUCGGAUCUGCACUU	0.177
CCUGUGCUACACAUCGUAUGUACCGAAUCGGGGCCCCCCCGGCCCCCCCGGCCCCCCCGGGAAAGUAUUAUGUUACGCCGUUCGGAUCUG	-0.0394
GCAGGAAGUAAAAACAAAUGGAAAUGCUUCGGAUAGUGGCAGGGGUGGGGGUUGCUAAGGAAAGGGUGGGAUGGGAGUGGGUAAAGAGUG	1.12
GCAGGAAGUAAAAACAAAUGGAAAUGCUUAAAAUAGUGGCAGGGGUGGGGGUUGCUAAGGAAAGGGUGGGAUGGGAGUGGGUAAAGAGUU	1.2
UUCUCUCAUUUCUUCUGAAAUACAGGGCAAAUUGGAUCAAGGCAGUUCAGAUGUGUAGCAAACCCAGAGAAUUUGCAUUGGCUUUAGCCA	1.22
CACAGACAACACGCACCCACACAGACACAGAGGGAAGCGGUUGGGAUGGGGACAGGGUGCACAGCAGGGCGGGGUAGGACCCCAGCCCCU	1.92
GUCCUGUGCUACACAUCGUAUGUACCGAAUCGGGCCCCCGGGGCCCCCGGCCCCCGGGAAAGUAUUAUGUUACGCCGUUCGGAUCUGCAC	-0.687
CUCAAGUCCUGUGCUACACAUCGUAUGUACCGAAUCGGAGGGGAGGGGAGGGGAAAGUAUUAUGUUACGCCGUUCGGAUCUGCACUUCCA	1.21
UAACUUUAGUGGAGGAUCUGAUGGAUAUGGCAGUGGACGUGGAUUUGGGGAUGGCUAUAAUGGGUAUGGAGGAGGACCUGGAGGUGGCAA	0.33
CAAGUCCUGUGCUACACAUCGUAUGUACCGAAUCGGGUUUGGGUGGGUUUUUGGGAAAGUAUUAUGUUACGCCGUUCGGAUCUGCACUUC	0.464
CAAGUCCUGUGCUACACAUCGUAUGUACCGAAUCGGGUUUGGGUGGGAAAAAGGGAAAGUAUUAUGUUACGCCGUUCGGAUCUGCACUUC	0.762

Block 2
Target: Histone acetyltransferase KAT6A, winged helix 1, GST fusion (KAT6A, Homo sapiens, UniProt Q92794, residues 1-85)
Technique: protein binding microarray
Form: double-stranded DNA, one strand shown
Matrix: in vitro
Tested at: not given
Notes: 8-mer, flanks averaged, mean of 2 arrays, mostly near background
Baseline: not given
Direction: higher = stronger binding
Construct (chain): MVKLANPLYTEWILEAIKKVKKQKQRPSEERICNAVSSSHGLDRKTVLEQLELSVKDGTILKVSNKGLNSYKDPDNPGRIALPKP
Oligonucleotide	E-score
GTGAGATA	0.0799
CGTGAAAG	-0.0438
CCCACATA	-0.181
ACAAGATG	-0.244
ACCTGACG	-0.00666
CATAGAGA	-0.158
AAGTGAAG	-0.133
AAACCCCC	0.0608
CTTCCAAC	-0.0826
AAGAAGAA	-0.105
ACTATCCC	0.0112
CAATTAAC	0.0409
CAAGCAAC	-0.103
GCCAGACA	-0.146
AACATTTG	-0.106
CCGGCGCG	0.45
ACAGTTAA	-0.136
AGTTCCGG	0.0698
AAGTCCGT	0.234
AACTGTGG	-0.0684
CAACTGGC	-0.162
CGCCAGAA	-0.119
AAAGTAGC	-0.0553
GGTGTCTA	-0.22
ACGGGATG	0.248

Block 3
Target: RING finger protein unkempt homolog, zinc fingers 1-6, GST-SBP tag (UNK, Homo sapiens, UniProt Q9C0B0, residues 30-357)
Sequence of UniProt Q9C0B0 (30-357, looked up): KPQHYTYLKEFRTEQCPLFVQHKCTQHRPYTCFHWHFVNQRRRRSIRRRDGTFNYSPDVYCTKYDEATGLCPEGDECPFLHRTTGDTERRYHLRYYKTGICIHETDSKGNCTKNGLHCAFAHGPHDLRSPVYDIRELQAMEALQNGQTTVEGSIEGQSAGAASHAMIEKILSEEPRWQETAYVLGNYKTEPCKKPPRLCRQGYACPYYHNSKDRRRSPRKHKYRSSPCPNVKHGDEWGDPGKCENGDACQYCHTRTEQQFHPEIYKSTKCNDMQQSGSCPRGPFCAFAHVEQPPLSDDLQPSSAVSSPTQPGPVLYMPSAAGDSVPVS
Technique: RNA Bind-n-Seq
Form: RNA
Matrix: in vitro
Tested at: not given
Notes: RNA with constant flanks, human-mouse chimeric sites, ends assumed
Baseline: input RNA pool
Direction: higher = stronger binding
All sequences stand within: GGGAGUUCUACAGUCCGACGAUC … CAACAGAGGAUUGAGCAUCA
Oligonucleotide	bound/input enrichment [ratio]
GAGCGUCUCGCUCGAACUGGGAUCAUCGUGACCACUAGUGAGGCUGUCCUCCUACAGCUGGUGGCUGACAAAGACCAUCCAAAAUUCAAGGAAAUUCAGAACCUAAUUAAGGCGAGUGCC	0.14
UUGGAAGGACCAGAGCCCAGUCAGCUCAAACCAUUAGUCAUACAGGCUAUGCCCACCCUAAUAGAACUAAUGAAAGACCCCAGUGUAGUUGUUCGAGACACAACAGCGUGGACUGUGGGC	0.408
AAAGAGAAACUAAAGCAACUAAUAGAGAAGAGGAUUGGCAAAGAGAAUUUCAUAGAGAAACUAGGAUUUAUUAGCAAACAUGAGUUAGUAUUCCAGACGUCUCAGAAAACCCCAGCCAAC	2.56
AGAUUCCCCCUCCUGAGACCUCCUCCGAAGUUGGAGUCUCUUACAGAUGGUUCAUCUCCUGUUAGCGUUUUGGUCUGGACCACCCAGCCUUGGACAAUUCCCGCCAACCAGGCAAUUUGC	0.37
UCUGGUCACACUCGUGUGUAUGGUGUUUGCUUUGUUGACACUUCACUGGGCAAGUUUUUCAUAGGUCAGUUUUCGGAUGACCGCCACUGUUCCAGAUUUAGGACGCUAGUGGCUCACUAU	0.239
GGGUGGGUGGUCAUUGCGCCAAUUGAGGCUGAUUUUCAUGAGUCGCCUUCAAAACUCUCGUGUAGGGUUGACAAUGUGGGGGGGUGGGGGAUCCAGCUUAUUCUUUUAUUUUCAAGUCCA	0.946
AUUCCGAUUAUGGACACCGGUGAAAACCCAGAGGUUCCCUUCCCUCGGGACAUGAUUGACUUAGAGGCCAAUUUCGAGAAGAUUGAAAAUGAACUGAAGGAAAUCAACACAAACCAGGAA	0.101
AGUACUGACUCAGGCGGAUUUUGCAACCUGAAUGCAACAGCAGCAGCAUCUUAGUCACAGUAGGGUAGUUUUGGGGCUCUGUGGCCAGGGUUUUAUUCACAUGCAGGUUUGGAAAAUGUA	2.48
AAAGAGUGGAUAGAAUGUGCACACGGGAUCGGUGGGACCCGGGCGAAAAAGGAGUGCAAGAUAGAAUUCGAUGACUUCGAAGAGUGCUUGCUUCGGUACAAAACGAUGAGGCGAAUGCAU	0.337
CAGCUGCAGACAGAAAAGGAUGAGAAGGAACUUUAUAAGGUACAUUUGAAGAAUACAGAAAUAGAAAAUACGAAGCUUGUGUCAGAGAUACAGACUUUAAAGAAUUUAGAUGGGAACAAA	4.09
AUAGAUGAAAUUGAUGUGGACCAGGAAGGAAUUGCUGAAAUGAUGCUGGAUGAAAAUGCUAUUGCUCAGGUCCCACGCCCUGGCACAUCUUUGAAACUCCCUGGCACUAACCAAACAGGA	0.23

Block 4
Target: Sal-like protein 4, full length isoform A (SALL4, Homo sapiens, UniProt Q9UJQ4, residues 1-1053)
Sequence of UniProt Q9UJQ4 (whole entry, looked up): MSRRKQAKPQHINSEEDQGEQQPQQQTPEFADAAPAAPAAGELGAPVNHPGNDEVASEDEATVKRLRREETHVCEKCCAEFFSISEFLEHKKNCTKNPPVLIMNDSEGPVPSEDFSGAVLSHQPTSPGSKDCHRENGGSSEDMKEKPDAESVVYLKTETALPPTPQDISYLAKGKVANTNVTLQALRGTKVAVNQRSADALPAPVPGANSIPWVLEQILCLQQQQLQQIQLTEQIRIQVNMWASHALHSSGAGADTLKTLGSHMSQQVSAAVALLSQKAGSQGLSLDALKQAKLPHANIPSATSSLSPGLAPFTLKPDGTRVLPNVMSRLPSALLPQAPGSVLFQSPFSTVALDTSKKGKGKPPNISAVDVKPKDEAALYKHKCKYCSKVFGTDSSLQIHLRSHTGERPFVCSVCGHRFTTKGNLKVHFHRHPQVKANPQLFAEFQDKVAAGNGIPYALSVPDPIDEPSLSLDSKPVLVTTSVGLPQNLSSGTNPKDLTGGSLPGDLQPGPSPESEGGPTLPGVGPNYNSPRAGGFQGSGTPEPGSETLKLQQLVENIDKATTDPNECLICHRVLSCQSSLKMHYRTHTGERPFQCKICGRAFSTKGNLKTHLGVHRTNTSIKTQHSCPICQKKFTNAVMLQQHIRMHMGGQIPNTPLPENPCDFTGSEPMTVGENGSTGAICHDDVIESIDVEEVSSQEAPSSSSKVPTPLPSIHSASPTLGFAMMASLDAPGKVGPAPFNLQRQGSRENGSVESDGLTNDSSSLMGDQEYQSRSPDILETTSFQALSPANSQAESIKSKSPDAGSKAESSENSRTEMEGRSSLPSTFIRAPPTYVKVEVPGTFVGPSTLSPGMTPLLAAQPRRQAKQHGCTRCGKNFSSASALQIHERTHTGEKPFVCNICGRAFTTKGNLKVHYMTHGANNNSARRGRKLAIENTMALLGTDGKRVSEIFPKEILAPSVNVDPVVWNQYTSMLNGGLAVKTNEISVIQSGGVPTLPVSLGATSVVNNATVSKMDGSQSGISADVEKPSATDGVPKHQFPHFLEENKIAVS
Technique: universal PBM
Form: double-stranded DNA, one strand shown
Matrix: in vitro
Tested at: 600 nM
Notes: 8-mer, flanks averaged, mean of replicates
Direction: higher = stronger binding
Oligonucleotide	E-score
AGGGCCCT	-0.239
ACTGGACG	-0.153
TGAATGCA	0.226
AAACGCCC	-0.191
CCGCGTGA	-0.162
CGGAAGCA	-0.0962
GCATAGAC	-0.0616
GTTAAGGA	0.0892
TACGCCTA	0.0627
AAACAGGC	-0.12
ACACGGCG	-0.178
AATCACGG	0.171
AGGTATAA	0.243
TCACGCCA	-0.109
CGAGGATA	-0.034
ACCCACCT	-0.254
CTATAGTA	0.202
GCTGATAA	0.172
CCGCCGCA	-0.204
CATTATCG	0.129

Block 5
Target: Interferon regulatory factor 5, full length, phosphomimetic (IRF5, Homo sapiens, UniProt Q13568-2, residues 1-514, S451D/S453D/S456D/S462D)
Technique: protein-binding microarray
Form: double-stranded DNA, one strand shown
Matrix: in vitro
Tested at: 940 nM top
Notes: 60-bp whole probe
Together with: salmon DNA 0.4 mg/ml
Baseline: random background probes
Direction: higher = stronger binding
All sequences stand within: GCCTAGCAC … GTCTTGATTCGCTTGACGCTGCTG
Oligonucleotide	fitted relative affinity
TCATCTTTCCTTACTTCACTGTGCTAG	1.64 z-score
TTAGATATCAGACTGAATTAGTGCTAG	-0.248 z-score
GACGAACTGGCGTTTCGAGACGTGCTA	0.128 z-score
GACGATTTCGTGACTGGAGACGTGCTA	-0.0834 z-score
TCATTTAGAAATTTCTTACTGTGCTAG	0.209 z-score
TTAGCTATCCTTATCCTTTAGTGCTAG	0.532 z-score
TGTGATCTCATATGAAAACAGTGCTAG	0.365 z-score
TTAAAACTGAGTCTCGATTAGTGCTAG	2.85 z-score
CAGGTTCTCTTTTATTTTTTGTGCTAG	1.86 z-score
TTTTCATTTTCTTTAACTCAGTGCTAG	2.73 z-score
TCTACTTCTCTTTTGGCTTTGTGCTAG	1.28 z-score
TTAGGCTTCGGTTCCGGTTAGTGCTAG	1.26 z-score
TTAGGTTTCCTTTTGCTTTAGTGCTAG	2.37 z-score
TTAGGTATCCTTCTCATTTAGTGCTAG	0.98 z-score
GACGATTCCAGTATCGAGACGTGCTAG	2.25 z-score
TCAATTTTGTGTTTTCAACTGTGCTAG	0.613 z-score
GACCGTTTCCTACTGCTGACGTGCTAG	0.382 z-score
TCACTACTGTATTTGGCACTGTGCTAG	0.231 z-score
TTAGATATCGGGTATCGACTAGTGCTA	1.34 z-score
CTAGGTATCGGTTTCGGTTAGTGCTAG	11.8 z-score
GACCGTTTCCTTCTCCTGACGTGCTAG	1.39 z-score
TCAGATTTTGCTTTCATACTGTGCTAG	0.886 z-score
TTAGGTTCCGACTATCGGTTAGTGCTA	0.925 z-score

A few entries again (block 4):
Oligonucleotide	E-score
GCATAGAC	-0.0616
GTTAAGGA	0.0892
TACGCCTA	0.0627
AAACAGGC	-0.12
ACACGGCG	-0.178
AATCACGG	0.171
